Experimental data pooled from the literature.
Each numbered part is a random draw from the data of one study; scales do not carry over between parts.

Set 1
Target: Fragile X messenger ribonucleoprotein 1, C-terminal low-complexity region (Fmr1, Mus musculus, UniProt P35922)
Method: RNA Bind-n-Seq
Molecule type: RNA
Matrix: in vitro
Tested at: 200 nM
Setting: whole 134-nt RNA, ends assumed
Added: 150 mM KCl
Reference: input library
Direction: higher = stronger binding
For `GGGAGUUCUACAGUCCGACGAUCUCCUGUGCUACACAUCGUAUGUACCGAAUCGGGGAAAAAGGGAAAAAGGGGAAAAAGGGAAAGUAUUAUGUUACGCCGUUCGGAUCUGCAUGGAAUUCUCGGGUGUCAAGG`, the log2 enrichment was -0.00693.
The log2 enrichment of `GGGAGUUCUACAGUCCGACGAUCUCCUGUGCUACACAUCGUAUGUACCGAAUCGGGGUUUUUUUGGGGAAAGGGGAAAGGGGAAAGUAUUAUGUUACGCCGUUCGGAUCUGCAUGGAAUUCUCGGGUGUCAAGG` is reported as 0.616.
With `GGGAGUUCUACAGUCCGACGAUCCUGUGCUACACAUCGUAUGUACCGAAUCGGGGUUUUUUUGGUUUUUUUGGGGUUUUUUUGGGAAAGUAUUAUGUUACGCCGUUCGGAUCUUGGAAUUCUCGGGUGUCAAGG` the log2 enrichment was -0.281.
`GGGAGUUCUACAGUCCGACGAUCUCAAGUCCUGUGCUACACAUCGUAUGUACCGAAUCGGGAGGGAAAAAGGGUGGGAAAGUAUUAUGUUACGCCGUUCGGAUCUGCACUUCCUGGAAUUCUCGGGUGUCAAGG` gave a log2 enrichment of 1.06.
`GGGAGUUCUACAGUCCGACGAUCACCAUGCAGGUGGGCAUCUUUGGGAAGUGAGGCAAGGGGGGGAUAGGGAGGGGGGUAACACUUUGGGAACAGGUGGUCCCAGGUCGUUUCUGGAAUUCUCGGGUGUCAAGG` gave a log2 enrichment of 1.19.
For `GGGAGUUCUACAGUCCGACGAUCUGGGAGGUGGAUUUUGUUUAUUUUUUUAGCUCAUUUCCAGGGGUGGGAAUUUCUUUUUAAUAUGUGUCAUGAAUAAAGUUGUUUUUGAAAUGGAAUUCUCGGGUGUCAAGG`, the log2 enrichment was 0.27.
With `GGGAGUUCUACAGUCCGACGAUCAGUCCUGUGCUACACAUCGUAUGUACCGAAUCGGGAAAAAGGGAAAAAGGGAAAGGGAAAGUAUUAUGUUACGCCGUUCGGAUCUGCACUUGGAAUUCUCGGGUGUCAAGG` the log2 enrichment was -0.232.
With `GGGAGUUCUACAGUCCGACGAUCUGGCCCUCGUGGCAUGCGGGGAGGAAGAGGUGGCCUCAUGGAUCGUGGUGGUCCCGGUGGAAUGUUCAGAGGUGGCCGUGGUGGAGACAGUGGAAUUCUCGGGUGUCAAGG` the log2 enrichment was -0.0845.
`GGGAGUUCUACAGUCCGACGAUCAAGUCCUGUGCUACACAUCGUAUGUACCGAAUCGGCCCCGGGGCCCCGGGCCCCGGAAAGUAUUAUGUUACGCCGUUCGGAUCUGCACUUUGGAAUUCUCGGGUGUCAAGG` gave a log2 enrichment of -1.05.

Set 2
Target: Histone acetyltransferase KAT6A, winged helix 1, GST fusion (KAT6A, Homo sapiens, UniProt Q92794, residues 1-85)
Method: protein binding microarray
Molecule type: double-stranded DNA, one strand shown
Matrix: in vitro
Tested at: not given
Setting: 8-mer, flanks averaged, mean of 2 arrays, mostly near background
Reference: not given
Direction: higher = stronger binding
Residues (chain): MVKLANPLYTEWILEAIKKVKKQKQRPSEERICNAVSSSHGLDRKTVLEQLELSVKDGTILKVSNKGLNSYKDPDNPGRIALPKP
For `GCAATACA`, the E-score was 0.167.
For `ACCGTATA`, the E-score was 0.16.
With `AATGCGAG` the E-score was -0.142.
The E-score of `ACTATCGG` is reported as 0.212.
`ATAGCCTC` has an E-score of 0.0668.
`GATATGGA` has an E-score of -0.0686.
The E-score of `CAACCGGC` is reported as 0.27.
`AGAACTGA` has an E-score of -0.103.
The E-score of `CCGCCCAG` is reported as 0.158.
With `GTGCTACA` the E-score was -0.223.
`CAGCGCGG` has an E-score of 0.395.
With `CACCTCCG` the E-score was 0.145.
`ATATAGAA` gave an E-score of -0.0607.
For `GTCGACAC`, the E-score was -0.113.
For `AGAGCTTA`, the E-score was -0.173.
`AATTCAAT` has an E-score of -0.153.
For `GACGATCC`, the E-score was -0.139.
The E-score of `ATACTATA` is reported as -0.00126.
The E-score of `CATCGTGC` is reported as 0.0765.
For `AATTGACT`, the E-score was -0.222.
For `GCGGAGCC`, the E-score was 0.284.
`CTTTAAGC` gave an E-score of -0.00966.
`TCTTATCA` has an E-score of -0.212.
`AGCCTGAA` gave an E-score of -0.206.

Set 3
Target: Prothrombin, mature alpha-thrombin (F2, Homo sapiens, UniProt P00734)
Method: aptamer microarray, sandwich
Molecule type: DNA with 2'F-ANA
Matrix: in vitro
Tested at: 200 nM
Setting: whole 15-mer aptamer, many near background
Added: Cy3 exosite-II aptamer, 400 nM
Direction: higher = stronger binding
Strand: GGTTGGTGTGGTTGG
`2'F-ANA at 1 3 4 7 8 10 12` — result for “mean fluorescence intensity”: 97.8 a.u.
`2'F-ANA at 1 2 6 9 10 11 12 14` — result for “mean fluorescence intensity”: 51.5 a.u.
Under “mean fluorescence intensity”, `2'F-ANA at 3 4 8 9 10 11 15` is recorded as 259 a.u.
`2'F-ANA at 1 5 9 10 11 13 14` — result for “mean fluorescence intensity”: 52.9 a.u.
Under “mean fluorescence intensity”, `2'F-ANA at 2 4 7 9 10 11 12 13 14 15` is recorded as 65 a.u.
For `2'F-ANA at 1 9 11 12 13 14 15`, “mean fluorescence intensity” read 64.6 a.u.
`2'F-ANA at 2 3 4 5 6 7 9 10 14` — result for “mean fluorescence intensity”: 49 a.u.
`2'F-ANA at 5 7 8 11 13 14`: “mean fluorescence intensity” 44.7 a.u.
`2'F-ANA at 1 2 3 5 9 10 11 13 15` — result for “mean fluorescence intensity”: 47.8 a.u.
Under “mean fluorescence intensity”, `2'F-ANA at 3 4 5 6 8 9 10 12 14` is recorded as 45.8 a.u.
Under “mean fluorescence intensity”, `2'F-ANA at 1 2 4 6 11` is recorded as 225 a.u.
`2'F-ANA at 1 3 4 5 11 12 14 15`: “mean fluorescence intensity” 49.7 a.u.
Under “mean fluorescence intensity”, `2'F-ANA at 2 4 5 7 8` is recorded as 130 a.u.
`2'F-ANA at 5 6 7 8 12 13` — result for “mean fluorescence intensity”: 133 a.u.
For `2'F-ANA at 1 2 3 4 7 8 9 11 12 13`, “mean fluorescence intensity” read 239 a.u.
Under “mean fluorescence intensity”, `2'F-ANA at 6 9 10 12 13 14` is recorded as 167 a.u.
`2'F-ANA at 2 4 7 9 11 12 14 15` — result for “mean fluorescence intensity”: 113 a.u.
For `2'F-ANA at 1 6 8 9 10 11 12 14 15`, “mean fluorescence intensity” read 52.2 a.u.
`2'F-ANA at 3 5 6 9 12 14` — result for “mean fluorescence intensity”: 61.7 a.u.
`2'F-ANA at 5 7 8 9 13 14` — result for “mean fluorescence intensity”: 47.7 a.u.
`2'F-ANA at 3 14 15` — result for “mean fluorescence intensity”: 616 a.u.
`2'F-ANA at 1 3 4 9 10 15`: “mean fluorescence intensity” 65.2 a.u.
Under “mean fluorescence intensity”, `2'F-ANA at 1 4 5 6 7 8 9 10 11 14` is recorded as 45.4 a.u.
`2'F-ANA at 3 5 6 7 10 11 12 14`: “mean fluorescence intensity” 47.9 a.u.

Set 4
Target: RNA binding protein fox-1 homolog 2, RRM domain, GST-SBP tag (RBFOX2, Homo sapiens, UniProt O43251-10, residues 100-194)
Method: RNA Bind-n-Seq
Molecule type: RNA
Matrix: in vitro
Tested at: 365 nM
Setting: natural RNA segment, single round, ends assumed
Reference: no-protein control
Direction: higher = stronger binding
Residues (chain): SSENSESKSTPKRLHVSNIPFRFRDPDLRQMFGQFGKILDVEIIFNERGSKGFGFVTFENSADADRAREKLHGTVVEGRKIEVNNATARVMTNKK
`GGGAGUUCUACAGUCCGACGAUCCGUUUAGUCACCUUGGAGCCCACUCACCUGGUCCUGUUGUUUUACCCCAUCCCUUCUCUCGCGCGCCUAUUGAUUUGUUUCUGAGGAGAGUACACCGUUCACUAUUGUAGUGGAAUUCUCGGGUGCCAA`: “RBNS enrichment (R)” 0.786.
For `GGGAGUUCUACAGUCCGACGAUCAUACCCCCUAGCAAACUUGGCCCUCUCCAUCUGUUCUGGGACUCUAUACUUCCCUAACCUGGAUCCCUGCUCUGCAAUGAGGUGGCCGUGGUUACACCAUCAUCUACCCUUGGAAUUCUCGGGUGCCAA`, “RBNS enrichment (R)” read 0.523.
`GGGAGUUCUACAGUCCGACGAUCCUAAUCCCUCCUUGCCCACCCAUUACAAAUGAACAUCAUCCCAAACUUUGCUUUCAGUUUCUUGGUAAGCAACAGCUGUCUGGCAAUGCUCAAGGAAUCCACAUCUGGUGUGGAAUUCUCGGGUGCCAA` — result for “RBNS enrichment (R)”: 0.72.
`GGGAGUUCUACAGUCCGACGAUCCGUUAGCAGAUGGCCAUUCUGGUCAGCUCCCUGCCAGGUCAUAGGGUCACAUACCGUCAACUUCACCUCCUGGCUGCUUAAGACUAGUUCUACUCCCCCCUCAUAACUAUUGGAAUUCUCGGGUGCCAA`: “RBNS enrichment (R)” 0.439.
`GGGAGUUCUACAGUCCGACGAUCUUAGUGUCAUUGCCGAUUUUGGCUAUAACAGUGUCUUUCUAGCCAUAAUAAAAUAAAACAAAAUCUUACUGCUUGCUCAUUUGAUUUUAGAUGUAUUUUCUCUGGCUUACUGGAAUUCUCGGGUGCCAA`: “RBNS enrichment (R)” 3.48.
Under “RBNS enrichment (R)”, `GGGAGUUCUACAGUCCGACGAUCUCUUCUUGUUUUAAGUUUCUUGGACUUCUGACAAACUUCCCUGGAGAAGUGUUCAUUUUUGUUUUCUUCAUGUAGCUUGUAGAUCAUAAUAAGUAUUUGCUCUUAAAAUUUGGAAUUCUCGGGUGCCAA` is recorded as 0.948.
For `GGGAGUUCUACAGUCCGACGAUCAUUGUUUUGUGACAGUAGAUGUGUUUAUAAUUUGAAGAUACCUGCUCAGAAGGCCAUAUUAUAGAAUGUCAUUUUUAAAAAAUAAAAUAUAAAGCAUACUUUCGAAAUACUGGAAUUCUCGGGUGCCAA`, “RBNS enrichment (R)” read 0.92.
`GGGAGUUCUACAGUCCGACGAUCGGGCAGCGAGGGAAGGAGGGAGGAGGCAUCUUCCCUGAAGCCCCCAAACUGGACCCCUUCUUCAGACCCCCACAAACACCCCAGCUUUCUGGCUUUUCUGAGGGCUAGGGUGGAAUUCUCGGGUGCCAA`: “RBNS enrichment (R)” 0.154.
